Results collected from several papers.
Lines come from different studies, so protocols differ. “And” joins repeats or separate records; there may be more than shown. Numbers after ± are the reported error.
ABCC2: ATP-binding cassette sub-family C member 2 (ABCC2, Homo sapiens, UniProt Q92887)
UniProt Q92887, sequence (whole entry, looked up): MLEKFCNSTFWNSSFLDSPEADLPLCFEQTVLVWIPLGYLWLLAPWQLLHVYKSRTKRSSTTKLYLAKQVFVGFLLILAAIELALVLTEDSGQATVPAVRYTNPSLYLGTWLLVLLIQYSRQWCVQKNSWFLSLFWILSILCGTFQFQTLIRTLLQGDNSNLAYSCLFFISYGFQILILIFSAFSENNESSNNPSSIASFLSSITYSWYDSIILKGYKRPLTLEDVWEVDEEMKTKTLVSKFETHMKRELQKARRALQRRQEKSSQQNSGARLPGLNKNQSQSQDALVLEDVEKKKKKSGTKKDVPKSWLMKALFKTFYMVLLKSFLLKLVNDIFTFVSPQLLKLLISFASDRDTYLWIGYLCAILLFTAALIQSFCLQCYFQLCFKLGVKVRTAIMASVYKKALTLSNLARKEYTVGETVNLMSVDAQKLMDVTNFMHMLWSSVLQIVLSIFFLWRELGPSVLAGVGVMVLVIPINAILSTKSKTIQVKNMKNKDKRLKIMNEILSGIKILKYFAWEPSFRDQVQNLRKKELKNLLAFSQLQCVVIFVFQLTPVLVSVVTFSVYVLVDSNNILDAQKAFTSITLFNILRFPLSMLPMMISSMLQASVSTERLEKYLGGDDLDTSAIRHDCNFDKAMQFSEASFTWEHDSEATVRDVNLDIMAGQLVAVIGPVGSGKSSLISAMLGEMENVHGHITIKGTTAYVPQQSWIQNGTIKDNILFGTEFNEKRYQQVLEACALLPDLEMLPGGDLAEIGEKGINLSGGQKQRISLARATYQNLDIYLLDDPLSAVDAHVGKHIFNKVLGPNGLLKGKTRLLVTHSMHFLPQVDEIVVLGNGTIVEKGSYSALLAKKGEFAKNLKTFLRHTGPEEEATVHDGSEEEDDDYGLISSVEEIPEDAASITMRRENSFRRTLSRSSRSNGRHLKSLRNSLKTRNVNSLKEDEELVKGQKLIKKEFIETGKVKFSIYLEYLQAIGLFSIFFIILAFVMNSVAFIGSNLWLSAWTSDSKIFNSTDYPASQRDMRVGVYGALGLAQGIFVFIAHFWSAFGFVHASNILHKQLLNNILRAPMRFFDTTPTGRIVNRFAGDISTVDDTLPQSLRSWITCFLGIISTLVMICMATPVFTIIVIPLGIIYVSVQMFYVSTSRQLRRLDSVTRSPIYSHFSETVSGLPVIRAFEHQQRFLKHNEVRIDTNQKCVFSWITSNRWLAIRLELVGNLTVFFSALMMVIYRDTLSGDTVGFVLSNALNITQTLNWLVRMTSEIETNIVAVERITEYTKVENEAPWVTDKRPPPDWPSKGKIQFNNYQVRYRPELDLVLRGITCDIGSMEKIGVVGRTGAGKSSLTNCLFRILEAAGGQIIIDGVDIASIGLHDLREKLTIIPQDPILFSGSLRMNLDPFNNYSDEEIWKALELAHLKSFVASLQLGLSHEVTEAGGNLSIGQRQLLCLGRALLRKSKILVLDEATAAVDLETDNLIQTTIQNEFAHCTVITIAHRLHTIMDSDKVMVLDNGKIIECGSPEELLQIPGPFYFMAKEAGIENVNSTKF
Tumor necrosis factor receptor superfamily member 9/Nectin-4: Tumor necrosis factor receptor superfamily member 9/Nectin-4 (Homo sapiens, UniProt Q07011+Q96NY8)
UniProt Q07011, sequence (whole entry, looked up): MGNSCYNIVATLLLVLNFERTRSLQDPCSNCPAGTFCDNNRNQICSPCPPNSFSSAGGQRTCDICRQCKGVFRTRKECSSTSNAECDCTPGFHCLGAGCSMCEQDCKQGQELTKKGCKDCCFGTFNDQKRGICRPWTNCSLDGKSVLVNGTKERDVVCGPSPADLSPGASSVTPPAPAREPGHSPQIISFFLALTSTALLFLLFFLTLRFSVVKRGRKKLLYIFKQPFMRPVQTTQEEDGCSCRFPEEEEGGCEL
UniProt Q96NY8, sequence (whole entry, looked up): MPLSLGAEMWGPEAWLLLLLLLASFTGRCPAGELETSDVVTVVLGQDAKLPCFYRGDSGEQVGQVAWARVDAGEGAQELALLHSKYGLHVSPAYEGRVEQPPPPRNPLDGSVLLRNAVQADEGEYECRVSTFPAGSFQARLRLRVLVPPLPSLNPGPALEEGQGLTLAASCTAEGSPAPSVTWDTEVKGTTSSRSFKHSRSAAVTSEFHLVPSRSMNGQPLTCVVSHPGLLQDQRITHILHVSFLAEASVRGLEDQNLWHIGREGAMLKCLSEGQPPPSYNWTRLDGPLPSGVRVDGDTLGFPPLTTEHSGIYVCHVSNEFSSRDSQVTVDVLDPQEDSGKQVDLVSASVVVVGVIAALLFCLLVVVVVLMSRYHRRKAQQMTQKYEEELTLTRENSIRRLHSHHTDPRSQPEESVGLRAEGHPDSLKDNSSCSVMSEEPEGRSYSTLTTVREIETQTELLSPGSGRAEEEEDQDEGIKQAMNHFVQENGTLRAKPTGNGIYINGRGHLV
UniProt Q16853, sequence (whole entry, looked up): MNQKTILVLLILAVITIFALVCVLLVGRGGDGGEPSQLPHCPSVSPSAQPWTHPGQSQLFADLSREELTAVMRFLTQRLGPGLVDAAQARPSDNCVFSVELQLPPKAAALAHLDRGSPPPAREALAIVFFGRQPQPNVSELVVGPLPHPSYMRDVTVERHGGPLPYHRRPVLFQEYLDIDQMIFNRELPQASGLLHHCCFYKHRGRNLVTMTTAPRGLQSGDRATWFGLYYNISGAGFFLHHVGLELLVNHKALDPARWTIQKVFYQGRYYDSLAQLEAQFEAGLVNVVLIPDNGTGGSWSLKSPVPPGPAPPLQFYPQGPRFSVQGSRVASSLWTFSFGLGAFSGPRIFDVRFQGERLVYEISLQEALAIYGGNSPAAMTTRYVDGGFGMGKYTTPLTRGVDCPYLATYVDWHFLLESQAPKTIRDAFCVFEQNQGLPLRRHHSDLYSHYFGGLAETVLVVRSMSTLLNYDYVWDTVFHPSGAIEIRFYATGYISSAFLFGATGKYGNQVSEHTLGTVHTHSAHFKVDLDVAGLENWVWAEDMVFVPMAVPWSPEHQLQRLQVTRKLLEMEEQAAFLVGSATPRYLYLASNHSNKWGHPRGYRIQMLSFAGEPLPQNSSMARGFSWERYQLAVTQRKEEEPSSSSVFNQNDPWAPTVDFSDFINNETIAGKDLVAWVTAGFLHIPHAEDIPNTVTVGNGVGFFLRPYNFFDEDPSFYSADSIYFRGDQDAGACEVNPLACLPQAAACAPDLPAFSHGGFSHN
UniProt P08684, sequence (whole entry, looked up): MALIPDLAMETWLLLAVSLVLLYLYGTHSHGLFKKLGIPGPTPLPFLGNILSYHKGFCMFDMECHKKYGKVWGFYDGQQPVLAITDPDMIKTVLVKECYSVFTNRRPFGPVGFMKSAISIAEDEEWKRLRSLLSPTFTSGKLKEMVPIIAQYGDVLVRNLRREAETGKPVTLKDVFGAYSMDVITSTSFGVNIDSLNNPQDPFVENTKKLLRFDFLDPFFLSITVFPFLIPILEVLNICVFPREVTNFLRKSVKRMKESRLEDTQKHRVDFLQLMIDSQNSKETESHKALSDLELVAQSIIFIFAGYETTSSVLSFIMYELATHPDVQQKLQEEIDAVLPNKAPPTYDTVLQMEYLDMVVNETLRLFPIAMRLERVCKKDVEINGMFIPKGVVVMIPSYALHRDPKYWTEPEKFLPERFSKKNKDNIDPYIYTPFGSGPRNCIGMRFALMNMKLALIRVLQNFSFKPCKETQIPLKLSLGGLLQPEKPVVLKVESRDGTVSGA
UniProt P0DMM9, sequence (whole entry, looked up): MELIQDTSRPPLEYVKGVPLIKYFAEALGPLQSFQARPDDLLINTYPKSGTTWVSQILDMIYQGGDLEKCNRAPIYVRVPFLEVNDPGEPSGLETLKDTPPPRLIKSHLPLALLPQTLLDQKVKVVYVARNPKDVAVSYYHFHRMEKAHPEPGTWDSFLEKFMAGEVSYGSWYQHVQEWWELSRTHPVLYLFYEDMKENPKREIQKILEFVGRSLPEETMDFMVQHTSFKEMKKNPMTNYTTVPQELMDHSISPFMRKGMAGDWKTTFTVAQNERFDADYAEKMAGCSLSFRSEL
UniProt Q12809, sequence (whole entry, looked up): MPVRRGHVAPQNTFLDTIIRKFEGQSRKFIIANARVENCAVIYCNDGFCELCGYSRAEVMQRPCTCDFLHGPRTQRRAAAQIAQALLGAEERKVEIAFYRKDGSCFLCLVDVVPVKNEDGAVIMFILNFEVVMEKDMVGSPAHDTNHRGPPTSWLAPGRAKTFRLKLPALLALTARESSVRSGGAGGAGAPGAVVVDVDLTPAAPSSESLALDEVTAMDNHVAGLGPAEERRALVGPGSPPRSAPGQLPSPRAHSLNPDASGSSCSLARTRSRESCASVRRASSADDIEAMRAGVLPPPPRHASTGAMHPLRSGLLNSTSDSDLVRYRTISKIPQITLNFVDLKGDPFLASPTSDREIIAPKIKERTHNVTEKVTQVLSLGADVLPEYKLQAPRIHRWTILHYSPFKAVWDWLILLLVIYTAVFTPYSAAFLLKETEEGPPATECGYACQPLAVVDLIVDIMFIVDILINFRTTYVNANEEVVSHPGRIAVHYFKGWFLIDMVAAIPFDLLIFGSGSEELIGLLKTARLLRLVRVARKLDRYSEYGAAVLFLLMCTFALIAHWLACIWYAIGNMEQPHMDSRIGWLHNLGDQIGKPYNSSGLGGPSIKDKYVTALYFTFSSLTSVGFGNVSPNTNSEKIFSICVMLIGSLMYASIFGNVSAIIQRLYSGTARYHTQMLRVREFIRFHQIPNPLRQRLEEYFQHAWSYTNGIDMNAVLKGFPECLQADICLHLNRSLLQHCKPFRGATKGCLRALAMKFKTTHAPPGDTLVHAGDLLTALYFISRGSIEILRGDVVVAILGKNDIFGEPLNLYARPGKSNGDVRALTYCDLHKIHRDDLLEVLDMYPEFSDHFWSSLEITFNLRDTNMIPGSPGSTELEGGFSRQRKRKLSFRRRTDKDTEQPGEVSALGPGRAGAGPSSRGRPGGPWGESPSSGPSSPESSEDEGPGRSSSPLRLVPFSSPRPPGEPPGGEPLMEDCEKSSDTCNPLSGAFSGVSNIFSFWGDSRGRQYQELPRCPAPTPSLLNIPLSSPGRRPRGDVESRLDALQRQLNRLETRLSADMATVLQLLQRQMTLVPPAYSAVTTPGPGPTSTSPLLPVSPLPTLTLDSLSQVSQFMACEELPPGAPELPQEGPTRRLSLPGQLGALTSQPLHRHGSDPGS

`O=c1[nH]c(=O)c(Cc2cccc(C(F)(F)F)c2)c([C@H]2CC[C@H](c3ccccc3)CC2)[nH]1` has an IC50 of > 2 µM (ABCC2; transport, inhibitor; inside-out membrane vesicles; together with: estradiol 17-beta-D-glucuronide).
For `CCCN(CCC)S(=O)(=O)c1ccc(C(=O)O)cc1`, the inhibition was 22% (ABCC2; transport activity, inhibitor; membrane vesicles overexpressing target; 300 µM).
With `COc1cc(O)c(CC=C(C)C)c2c1C(=O)CC(c1ccc(O)cc1)O2` (stereo not shown) the inhibition was < 10% (CYP2B6 (human); enzyme activity, inhibitor; human liver microsomes; 10 µM, pH 7.4, together with: bupropion).
For `Cn1cc(-c2ccc(-c3cncc(Cl)c3N3CCC4(CCNC4=O)CC3)cc2)cn1`, “log2 fold change” read -2.03 (COLO 205; gene expression, microarray, item: SQLE mRNA; concentration not given, 2 h; baseline: untreated cells).
With `O=C(O)CN1Cc2cccc(n2)CN(CC(=O)O)Cc2cccc(n2)C1` the pMn was 9.98 (Mn2+; potentiometric titration; pH 7.4, ligand and Mn2+ 10 µM).
The activity score of `CC(=O)Nc1ccccc1` is reported as 3 (human iPSC-derived cardiomyocytes; MyBP-C/MYH ratio, plate-normalised SD score; concentration not given, primary screen; direction not given).
`CCCC[C@@H]1NC(=O)[C@H](Cc2ccc(O)cc2)NC(=O)[C@@H]2CCCN2C(=O)[C@H](CC(=O)O)NC(=O)[C@H](C)NC(=O)[C@H](Cc2ccccc2)NC(=O)[C@@H]2CSCCC(=O)N3CN(CN(C3)C(=O)CCSC[C@@H](C(=O)N[C@@H](C)C(N)=O)NC1=O)C(=O)CCSC[C@H](NC(C)=O)C(=O)N[C@@H](CC(C)(C)C)C(=O)N1CCC[C@H]1C(=O)N[C@@H](CCC(=O)O)C(=O)N[C@H](CCCCNC(=O)CCc1cn(CCOCCOCCOCCOCCOCCC(=O)N[C@H]3CSCCC(=O)N4CN5CN(C4)C(=O)CCSC[C@H](NC(=O)[C@@H](CC(=O)O)NC(=O)[C@H](Cc4cccc6ccccc46)NC(=O)[C@@H]4CCCN4C3=O)C(=O)N[C@@H](CCSC)C(=O)N[C@@H](CCCCNC(=N)N)C(=O)N[C@@H](CC(=O)O)C(=O)N[C@@H](Cc3c[nH]c4ccccc34)C(=O)N[C@@H](CO)C(=O)N[C@@H]([C@@H](C)O)C(=O)N3CCC[C@H]3C(=O)N3C[C@H](O)C[C@H]3C(=O)N[C@@H](Cc3c[nH]c4ccccc34)C(=O)N[C@H](C(N)=O)CSCCC5=O)nn1)C(=O)N1CCC[C@H]1C(=O)N[C@@H](Cc1ccc(O)cc1)C(=O)N2` gave an Emax of 31 fold (Tumor necrosis factor receptor superfamily member 9/Nectin-4; reporter gene, agonist, luciferase reporter; CD137 Jurkat reporter with HT-1376; 6 h, geometric mean; baseline: wells without compound).
`Cc1oc2ccccc2c1Cc1cc(I)c(OCC(=O)O)c(I)c1` — result for “activation slope factor”: 9.2 ± 0.4 mV (KCNH2 (Homo sapiens, UniProt Q12809); ion current, whole-cell patch clamp; HEK293 expressing hERG1; 10 µM, external K+ 10 mM).
`O=C(O)COc1cccc(-c2nc(Nc3ccc4[nH]ncc4c3)c3ccccc3n2)c1` has an IC50 of 26.9 µM (UGT1A3 (Homo sapiens, UniProt P35503); enzyme activity, inhibitor; together with: quinidine).
`CC[C@H]1[C@@H](O)[C@@H]2[C@H](CC[C@]3(C)[C@@H]([C@H](C)CCNC(=O)NS(=O)(=O)c4ccc(C(C)(C)C)cc4)CC[C@@H]23)[C@@]2(C)CC[C@@H](O)C[C@@H]12`: “CL/F geometric mean” 25.4 L/h (Cytochrome P450 3A4 (CYP3A4, Homo sapiens, UniProt P08684); human, plasma; 10 mg, day 1, compound alone).
`O=C(NC(Cc1cc(=O)[nH]c2ccccc12)C(=O)O)c1ccc(Cl)cc1` (stereo not shown) has an activity score of 14.2 (human iPSC-derived cardiomyocytes; MyBP-C/MYH ratio, plate-normalised SD score; concentration not given, primary screen; direction not given).
The EC50 of `N#Cc1ccc([C@H]2CCc3cncn32)c(F)c1` is reported as 136 ± 12 µM (CYP2B6 (human); inducer; 48 h).
For `NCc1cc2c(cc1F)C(=O)N(C1CCC(=O)NC1=O)C2` (stereo not shown), the concentration was 38600 ng/mL and 30100 ng/mL (AOC3 (Homo sapiens, UniProt Q16853); substrate, LC-MS/MS; cirrhotic human liver lysate; 500.00 µM, 60 min, pH 7.4).
The Emax of `CCCC[C@@H]1NC(=O)[C@H](Cc2ccc(O)cc2)NC(=O)[C@@H]2CCCN2C(=O)[C@H](CC(=O)O)NC(=O)[C@H](C)NC(=O)[C@H](Cc2ccccc2)NC(=O)[C@@H]2CSCCC(=O)N3CN(CN(C3)C(=O)CCSC[C@@H](C(=O)N[C@@H](C)C(N)=O)NC1=O)C(=O)CCSC[C@H](NC(C)=O)C(=O)N[C@@H](CC(C)(C)C)C(=O)N1CCC[C@H]1C(=O)N[C@@H](CCC(=O)O)C(=O)N[C@H](CCCCNC(=O)CCOCCOCCOCCOCCOCCOCCOCCOCCOCCOCCOCCOCCn1cc(CCC(=O)NCCC(=O)N(C)CC(=O)N(C)CC(=O)N(C)CC(=O)N(C)CC(=O)N(C)CC(=O)N(C)CC(=O)N(C)CC(=O)N(C)CC(=O)N(C)CC(=O)N(C)CC(=O)N[C@H]3CSCCC(=O)N4CN5CN(C4)C(=O)CCSC[C@H](NC(=O)[C@@H](CC(=O)O)NC(=O)[C@H](Cc4cccc6ccccc46)NC(=O)[C@@H]4CCCN4C3=O)C(=O)N[C@@H](CCSC)C(=O)N[C@@H](CCCCNC(=N)N)C(=O)N[C@@H](CC(=O)O)C(=O)N[C@@H](Cc3c[nH]c4ccccc34)C(=O)N[C@@H](CO)C(=O)N[C@@H]([C@@H](C)O)C(=O)N3CCC[C@H]3C(=O)N3C[C@H](O)C[C@H]3C(=O)N[C@@H](Cc3c[nH]c4ccccc34)C(=O)N[C@H](C(N)=O)CSCCC5=O)nn1)C(=O)N1CCC[C@H]1C(=O)N[C@@H](Cc1ccc(O)cc1)C(=O)N2` is reported as 44 fold (Tumor necrosis factor receptor superfamily member 9/Nectin-4; reporter gene, agonist, luciferase reporter; CD137 Jurkat reporter with HT-1376; 6 h, geometric mean; baseline: wells without compound).
`CC(=O)NCCc1c[nH]c2ccc(O)cc12` gave a specific activity of 0.27 ± 0.01 nmol/min/mg (SULT1A3 (Homo sapiens, UniProt P0DMM9); substrate, sulfation, purified enzyme; 10 µM, 10 min, pH 7.0, 37 °C).
With `CCCC[C@@H]1NC(=O)[C@H](Cc2ccc(O)cc2)NC(=O)[C@@H]2CCCN2C(=O)[C@H](CC(=O)O)NC(=O)[C@H](C)NC(=O)[C@H](Cc2ccccc2)NC(=O)[C@@H]2CSCCC(=O)N3CN(CN(C3)C(=O)CCSC[C@@H](C(=O)N[C@@H](C)C(N)=O)NC1=O)C(=O)CCSC[C@H](NC(C)=O)C(=O)N[C@@H](CC(C)(C)C)C(=O)N1CCC[C@H]1C(=O)N[C@@H](CCCCNC(=O)CCc1cn(CC(=O)N[C@H]3CSCCC(=O)N4CN5CN(C4)C(=O)CCSC[C@H](NC(=O)[C@@H](CC(=O)O)NC(=O)[C@H](Cc4cccc6ccccc46)NC(=O)[C@@H]4CCCN4C3=O)C(=O)N[C@@H](CCSC)C(=O)N[C@@H](CCCCNC(=N)N)C(=O)N[C@@H](CC(=O)O)C(=O)N[C@@H](Cc3c[nH]c4ccccc34)C(=O)N[C@@H](CO)C(=O)N[C@@H]([C@@H](C)O)C(=O)N3CCC[C@H]3C(=O)N3C[C@H](O)C[C@H]3C(=O)N[C@@H](Cc3c[nH]c4ccccc34)C(=O)N[C@H](C(N)=O)CSCCC5=O)nn1)C(=O)N[C@H](C)C(=O)N1CCC[C@H]1C(=O)N[C@@H](Cc1ccc(O)cc1)C(=O)N2` the Emax was 42 fold (Tumor necrosis factor receptor superfamily member 9/Nectin-4; reporter gene, agonist, luciferase reporter; CD137 Jurkat reporter with HT-1376; 6 h, geometric mean; baseline: wells without compound).
`NC/C(=C\F)COc1cccc(Cn2c(=S)[nH]c(=O)c3[nH]cnc32)c1` gave an inhibition of < 50% (ABCC2; transport, inhibitor; HEK cells expressing ABCC2; 30 µM, together with: CDCF substrate).
For `O=C(NCC1CCCCN1)c1cc(OCC(F)(F)F)ccc1OCC(F)(F)F` (stereo not shown), “recovery from inactivation” read 52.6% (SCN5A (Homo sapiens, UniProt Q14524); near IC50, 200 ms, -120 mV hyperpolarization).
For `CCCC[C@@H]1NC(=O)[C@H](Cc2ccc(O)cc2)NC(=O)[C@@H]2CCCN2C(=O)[C@H](CC(=O)O)NC(=O)[C@H](C)NC(=O)[C@H](Cc2ccccc2)NC(=O)[C@@H]2CSCCC(=O)N3CN(CN(C3)C(=O)CCSC[C@@H](C(=O)N[C@@H](CNC(=O)CCc3cn(CCOCCOCCOCCOCCOCCOCCOCCOCCOCCOCCOCCOCCC(=O)NCCC(=O)N(C)CC(=O)N(C)CC(=O)N(C)CC(=O)N(C)CC(=O)N(C)CC(=O)N(C)CC(=O)N(C)CC(=O)N(C)CC(=O)N(C)CC(=O)N(C)CC(=O)NCCCC[C@@H]4NC(=O)[C@H](Cc5cccc6ccccc56)NC(=O)[C@@H]5CCCN5C(=O)[C@@H](NC(C)=O)CSCCC(=O)N5CN6CN(C5)C(=O)CCSC[C@H](NC4=O)C(=O)N[C@@H](CCSC)C(=O)N[C@@H](CCCCNC(=N)N)C(=O)N[C@@H](CC(=O)O)C(=O)N[C@@H](Cc4c[nH]c5ccccc45)C(=O)N[C@@H](CO)C(=O)N[C@@H]([C@@H](C)O)C(=O)N4CCC[C@H]4C(=O)N4C[C@H](O)C[C@H]4C(=O)N[C@@H](Cc4c[nH]c5ccccc45)C(=O)N[C@H](C(N)=O)CSCCC6=O)nn3)C(N)=O)NC1=O)C(=O)CCSC[C@H](NC(C)=O)C(=O)N[C@@H](CC(C)(C)C)C(=O)N1CCC[C@H]1C(=O)N[C@@H](CCC(=O)O)C(=O)N[C@H](C)C(=O)N1CCC[C@H]1C(=O)N[C@@H](Cc1ccc(O)cc1)C(=O)N2`, the Emax was 39 fold (Tumor necrosis factor receptor superfamily member 9/Nectin-4; reporter gene, agonist, luciferase reporter; CD137 Jurkat reporter with HT-1376; 6 h, geometric mean; baseline: wells without compound).

Excerpt of the above:
With `CCCC[C@@H]1NC(=O)[C@H](Cc2ccc(O)cc2)NC(=O)[C@@H]2CCCN2C(=O)[C@H](CC(=O)O)NC(=O)[C@H](C)NC(=O)[C@H](Cc2ccccc2)NC(=O)[C@@H]2CSCCC(=O)N3CN(CN(C3)C(=O)CCSC[C@@H](C(=O)N[C@@H](C)C(N)=O)NC1=O)C(=O)CCSC[C@H](NC(C)=O)C(=O)N[C@@H](CC(C)(C)C)C(=O)N1CCC[C@H]1C(=O)N[C@@H](CCCCNC(=O)CCc1cn(CC(=O)N[C@H]3CSCCC(=O)N4CN5CN(C4)C(=O)CCSC[C@H](NC(=O)[C@@H](CC(=O)O)NC(=O)[C@H](Cc4cccc6ccccc46)NC(=O)[C@@H]4CCCN4C3=O)C(=O)N[C@@H](CCSC)C(=O)N[C@@H](CCCCNC(=N)N)C(=O)N[C@@H](CC(=O)O)C(=O)N[C@@H](Cc3c[nH]c4ccccc34)C(=O)N[C@@H](CO)C(=O)N[C@@H]([C@@H](C)O)C(=O)N3CCC[C@H]3C(=O)N3C[C@H](O)C[C@H]3C(=O)N[C@@H](Cc3c[nH]c4ccccc34)C(=O)N[C@H](C(N)=O)CSCCC5=O)nn1)C(=O)N[C@H](C)C(=O)N1CCC[C@H]1C(=O)N[C@@H](Cc1ccc(O)cc1)C(=O)N2` the Emax was 42 fold (Tumor necrosis factor receptor superfamily member 9/Nectin-4; reporter gene, agonist, luciferase reporter; CD137 Jurkat reporter with HT-1376; 6 h, geometric mean; baseline: wells without compound).
For `Cn1cc(-c2ccc(-c3cncc(Cl)c3N3CCC4(CCNC4=O)CC3)cc2)cn1`, “log2 fold change” read -2.03 (COLO 205; gene expression, microarray, item: SQLE mRNA; concentration not given, 2 h; baseline: untreated cells).
